Measurements of several laboratories.
Compare with care: the assays were run in different laboratories. ≈ marks a conversion by molar mass, not a printed value.

Cc1cc(F)cc2c(CCC(=O)N[C@@H]3C(=O)NC[C@H]3O)c(-c3ccc(F)cc3)[nH]c12 — UACR (mice, APOL1 G2, single copy; oral, 30 mg/kg twice daily, day 9, dosing from day 6, added: IFNγ plasmid injection): 1830 µg/mg
Cn1cc(-c2ccc(-c3cncc(Cl)c3N3CCC4(CCNC4=O)CC3)cc2)cn1 — log2 fold change (COLO 205; gene expression, microarray, measured: EFNA3 mRNA; concentration not given, 6 h; baseline: untreated cells): 1.24
CC(=O)NC[C@H]1CN(c2ccc(N3CCOCC3)c(F)c2)C(=O)O1 — MIC90 (Enterococcus faecalis; agar dilution; vancomycin-susceptible): 2 mg/L (≈ 5.93 µM)
c1coc(-c2n[nH]cc2-c2ccnc3ccccc23)c1 — log2 fold change (HRK1 (Candida albicans); kinase binding, MIB/MS competition; Candida albicans lysate; 1 µM; baseline: DMSO): -0.24
CN[C@H](CC(C)C)C(=O)N[C@H]1C(=O)N[C@@H](CC(N)=O)C(=O)N[C@H]2C(=O)N[C@H]3C(=O)N[C@H](C(=O)N[C@H](C(=O)O)c4cc(O)cc(O)c4-c4cc3ccc4O)[C@H](O)c3ccc(c(Cl)c3)Oc3cc2cc(c3O[C@@H]2O[C@H](CO)[C@@H](O)[C@H](O)[C@H]2O[C@H]2C[C@](C)(N)[C@H](O)[C@H](C)O2)Oc2ccc(cc2Cl)[C@H]1O — MIC50 (Enterococcus faecalis; compound-intermediate; pH 5.5): 1 mg/L (≈ 0.69 µM)
OC(CCN1CCCCC1)(c1ccccc1)C1CC2C=CC1C2 (stereo not drawn) — change, EEG Alpha power, in O1-Pz (resting-state EEG; healthy elderly humans; oral, 4 mg, eyes open, LS mean; baseline: baseline): -7.8%
CC(=O)N(C)[C@H]1CCN(C(=O)c2cnc3c(c2)C[C@](C)(c2ccc(F)cc2)N3)C1 — urinary pantetheine (vanin activity; measured: creatinine-normalised pantetheine; human, urine; 30 mg, 144 h after first dose, median; baseline: baseline): 1590%
Oc1ccccc1-c1n[nH]cc1-c1ccnc2ccccc12 — log2 fold change (HRK1 (Candida albicans); kinase binding, MIB/MS competition; Candida albicans lysate; 1 µM; baseline: DMSO): 0.02
CC(C)NCC(O)c1ccc(O)c(O)c1 (stereo not drawn) — sarcomere length (mouse ventricular cardiomyocytes; dose not given, 0.191 s): 1.69 µm
